Experimental data pooled from the literature.
Lines come from different studies, so protocols differ. ± gives the spread as reported.

SMILES	assay	test system	setting	quantity	result
CC(C)[C@@H]1NC(=O)[C@H](Cc2ccccc2)NC(=O)[C@@H]2NC(=O)[C@H](Cc3ccccc3)NC(=O)[C@@H]3CCCN3C(=O)CNC(=O)[C@H](Cc3ccccc3)NC(=O)[C@@H]3CNCCCC[C@@H](C(=O)O)NC(=O)[C@@H]4NC(=O)[C@H](CC(N)=O)NC(=O)CNC(=O)[C@H]([C@@H](O)C(=O)O)NC(=O)[C@H](CSC[C@@H](NC(=O)[C@H](CCC(N)=O)NC(=O)[C@H](CCCCNC(=O)c5ccc(NN)nc5)NC(=O)[C@@H](N)CS[C@H]4C)C(=O)N[C@@H](CS[C@H]2C)C(=O)N3)NC1=O [technetium-99m labelled]	–	rat, saline control, kidneys	intravenous, 2 h after tracer, tracer 2 h after reperfusion	tissue uptake	8.17 ± 1.8 %ID/g
CC[C@H](C)[C@H](NC(=O)[C@H](Cc1ccccc1)NC(=O)[C@H](CCC(=O)O)NC(=O)[C@H](CCCNC(=N)N)NC(=O)[C@H](C)NC(=O)[C@H](C)NC(=O)[C@H](CCC(N)=O)NC(=O)[C@H](CCC(=O)O)NC(=O)[C@H](CCC(=O)O)NC(=O)[C@H](CC(C)C)NC(=O)[C@H](Cc1ccc(O)cc1)NC(=O)[C@H](CO)NC(=O)[C@H](CO)NC(=O)[C@@H](NC(=O)[C@H](CC(=O)O)NC(=O)[C@H](CO)NC(=O)[C@@H](NC(=O)[C@H](Cc1ccccc1)NC(=O)[C@@H](NC(=O)CNC(=O)[C@H](CCC(=O)O)NC(=O)[C@H](C)NC(=O)CCc1c[nH]cn1)[C@@H](C)O)[C@@H](C)O)C(C)C)C(=O)N[C@@H](C)C(=O)N[C@@H](Cc1c[nH]c2ccccc12)C(=O)N[C@@H](CC(C)C)C(=O)N[C@H](C(=O)N[C@@H](CCCNC(=N)N)C(=O)NCC(=O)N[C@@H](CCCNC(=N)N)C(=O)N[C@@H](CCCCNC(=O)COCCOCCNC(=O)COCCOCCNC(=O)CC[C@H](NC(=O)CCCCCCCCCCCCCCCCC(=O)O)C(=O)O)C(=O)NCC(=O)NCC(=O)N[C@@H](CO)C(=O)N[C@@H](CCCCNc1c(NCCCCCN(O)C(=O)CCC(=O)NCCCCCN(O)C(=O)CCC(=O)NCCCCCN(O)C(C)=O)c(=O)c1=O)C(=O)O)C(C)C [zirconium-89 labelled]	–	rat, knee	intravenous, 3 nmol/kg, 24 h	tissue uptake	0.23 %ID/g
CC(C)C[C@H](NC(=O)C[C@H](O)[C@H](CC(C)C)NC(=O)[C@H](Cc1c[nH]cn1)NC(=O)CNC(=O)[C@@H](NC(=O)[C@H](C)NC(=O)[C@H](Cc1c[nH]c2ccccc12)NC(=O)[C@H](CCC(N)=O)NC(=O)[C@@H](Cc1ccccc1)NC(=O)CCNC(=O)CCSc1nnc(NCCC(=O)NCCC(=O)NCCCC[C@H](NC(=O)N[C@@H](CCC(=O)O)C(=O)O)C(=O)O)c2c1CCC1C(CC2)C1COC(=O)NCCNC(=O)CC[C@H](C(=O)O)N1CCN(CC(=O)O)CCN(CC(=O)O)CC1)C(C)C)C(N)=O (some centres unmarked) [gallium-68 labelled]	–	athymic NMRI nude mouse, blood	intravenous, dose not given, 2 h, with: bombesin 480 nmol (GRPR blocking)	tissue uptake	0.43 %ID/g
O=C(O)C[C@H](NC(=O)[C@H](CC(=O)O)NC(=O)[C@H](CC(=O)O)NC(=O)[C@H](CC(=O)O)NC(=O)[C@H](CC(=O)O)NC(=O)[C@H](CC(=O)O)NC(=O)[C@H](CC(=O)O)NC(=O)[C@H](CC(=O)O)NC(=O)[C@H](CC(=O)O)NC(=O)[C@H](CC(=O)O)NC(=O)[C@H](CC(=O)O)NC(=O)[C@H](CCCCNC(=O)c1ccc(C(=O)NCCOCCOB2BBBBBB3BBBB3B2)cc1)NC(=O)CN1CCN(CC(=O)O)CCN(CC(=O)O)CCN(CC(=O)O)CC1)C(=O)O [gallium-67 labelled]	gamma counting	ddY mouse, male, 6 weeks old, liver	intravenous, 37 kBq, 10 min	tissue uptake	1.69 %ID/g
Cc1ccccc1NC(=O)Nc1ccc(CC(=O)N[C@@H](CCCCNC(=O)/C=C/c2cccnc2)C(=O)N[C@@H](CCCC(=O)O)C(=O)NC2(C(=O)NCCOCCOCCOCCOCC(=O)N[C@@H](CCCCNC(=S)Nc3ccc(C[C@H]4CN(CC(=O)O)CCN(CC(=O)O)CCN4CC(=O)O)cc3)C(N)=O)CCCCC2)cc1 [gallium-68 labelled]	–	human serum	2 h, 37 °C, 68Ga-labelled	dissociation	< 5%
COc1cccc2c1C(=O)c1c(O)c3c(c(O)c1C2=O)C[C@@](O)(C(=O)CO)C[C@@H]3O[C@H]1C[C@H](NC(=O)[C@@H]2CCCN2C(=O)CNC(=O)[C@H](CC(C)C)NC(=O)[C@H](C)NC(=O)CP(=O)(O)O)[C@H](O)[C@H](C)O1	–	healthy mice, plasma	intravenous, 23.6 mg/kg, extrapolated to time zero	Cmax	207 µM
N=C(N)NCCC[C@@H]1NC(=O)[C@H](CCCCNC(=O)c2ccc(CNC34CNCCNCC(N)(CNCCNC3)CNCCNC4)cc2)NC(=O)[C@@H](Cc2ccc(O)cc2)NC(=O)[C@H](CC(=O)O)NC(=O)CNC1=O [copper-64 labelled]	microPET	male athymic nude mouse, PC-3 tumour, muscle	intravenous, 7.4 MBq, 48 h	tissue uptake	0.14 ± 0.02 %ID/g
C[C@@H](O)[C@@H](CO)NC(=O)[C@@H](CCCNC(=N)N)NC(=O)[C@@H]1CCCN1C(=O)[C@@H]1CSSC[C@H](NC(=O)[C@H](Cc2ccccc2)NC(=O)CN2CCN(CC(=O)O)CCN(CC(=O)O)CCN(CC(=O)O)CC2)C(=O)N[C@@H](Cc2ccc(O)cc2)C(=O)N[C@@H](Cc2ccccc2)C(=O)N[C@@H](CCC(N)=O)C(=O)N[C@@H](CC(N)=O)C(=O)N1 [gallium-68 labelled]	–	healthy Wistar rat, large intestine	intravenous, 8 MBq, 120 min, individual animals	tissue uptake	0.02 %ID/g

For quick reference, copied from above:
SMILES	assay	test system	setting	quantity	result
CC(C)C[C@H](NC(=O)C[C@H](O)[C@H](CC(C)C)NC(=O)[C@H](Cc1c[nH]cn1)NC(=O)CNC(=O)[C@@H](NC(=O)[C@H](C)NC(=O)[C@H](Cc1c[nH]c2ccccc12)NC(=O)[C@H](CCC(N)=O)NC(=O)[C@@H](Cc1ccccc1)NC(=O)CCNC(=O)CCSc1nnc(NCCC(=O)NCCC(=O)NCCCC[C@H](NC(=O)N[C@@H](CCC(=O)O)C(=O)O)C(=O)O)c2c1CCC1C(CC2)C1COC(=O)NCCNC(=O)CC[C@H](C(=O)O)N1CCN(CC(=O)O)CCN(CC(=O)O)CC1)C(C)C)C(N)=O (some centres unmarked) [gallium-68 labelled]	–	athymic NMRI nude mouse, blood	intravenous, dose not given, 2 h, with: bombesin 480 nmol (GRPR blocking)	tissue uptake	0.43 %ID/g
